Measurements pooled from the literature.
Each numbered part is a random draw from the data of one study; scales do not carry over between parts. Changes are numbered by the printed parent chain.

Study 1 — method: DHFR PCA, deep sequencing; matrix: yeast; with: (+)-ABA 2500 µM; reference: wild-type fitted maximum; reading: higher = stronger binding; endpoint: relative binding score
Target: ABI1, truncated, D143A, DHFR fusion (Arabidopsis thaliana)
Setting: methotrexate growth selection, single substitutions
Starting sequence: PYL1, truncated, DHFR fusion (Arabidopsis thaliana); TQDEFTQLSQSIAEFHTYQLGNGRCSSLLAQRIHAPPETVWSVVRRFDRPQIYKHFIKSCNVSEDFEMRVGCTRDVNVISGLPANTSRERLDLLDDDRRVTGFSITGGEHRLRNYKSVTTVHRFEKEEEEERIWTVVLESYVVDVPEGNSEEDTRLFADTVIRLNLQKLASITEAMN
A13V: 102%
R49Q: 97.2%
E14T: 86.5%
E147F: 90.3%
V40N: -9.11%
L164T: 99.1%
N61M: 96.1%
S87W: -3.6%
H16G: 45.3%
F47T: -5.17%
R32S: 93.4%
R69P: 70%
Y18C: 92.7%
T17C: 102%
H110Y: 17.8%
W134I: 111%
R99E: 91.5%
T86Y: 91%
L82N: 49%
V137E: -18.7%
V78D: 0.269%

Study 2 — method: aptamer microarray, sandwich; form: DNA with 2'F-ANA; matrix: in vitro; concentration: 200 nM; with: Cy3 exosite-II aptamer, 400 nM; reading: higher = stronger binding; endpoint: mean fluorescence intensity; sequence: GGTTGGTGTGGTTGG
Target: Prothrombin, mature alpha-thrombin (F2, Homo sapiens, UniProt P00734)
Setting: whole 15-mer aptamer, many near background
2'F-ANA at 1 4 6 7 8 10 11: 67.7 a.u.
2'F-ANA at 1 2 4 5 7 15: 55.7 a.u.
2'F-ANA at 2 3 7 8 9 11: 874 a.u.
2'F-ANA at 1 2 4 7 8 9 10 12 13 15: 81.1 a.u.
2'F-ANA at 3 10 11 15: 599 a.u.
2'F-ANA at 2 4 5 7 11 12 13 14 15: 59.7 a.u.
2'F-ANA at 1 3 5 8 11 14: 47.8 a.u.
2'F-ANA at 1 2 5 7 8 9 11 14: 45.6 a.u.
2'F-ANA at 2 3 4 9 11 12 14: 266 a.u.
2'F-ANA at 1 2 4 6 8 9 10 11: 50 a.u.
2'F-ANA at 3 4 8 11 12 14 15: 388 a.u.
2'F-ANA at 2 3 4 5 6 7 9 11 12: 141 a.u.
2'F-ANA at 2 4 5 6 7 10 12 13 14: 46 a.u.
2'F-ANA at 3 4 5 9 11: 82.9 a.u.
2'F-ANA at 1 2 3 4 6 8 12 13 14: 72.4 a.u.
2'F-ANA at 2 3 6 8 9 11 12: 918 a.u.
2'F-ANA at 3 4 7 10 11 12 13 14: 221 a.u.
2'F-ANA at 1 2 3 4 5 8 10 11: 47.2 a.u.
2'F-ANA at 1 2 3 4 6 9 10 14: 48.4 a.u.
2'F-ANA at 1 2 4 6 8 14: 52.1 a.u.

Study 3 — method: EMSA with sequencing; form: double-stranded DNA, one strand shown; matrix: in vitro; concentration: 10 and 20 nM; reference: negative control set to 0; reading: higher = stronger binding; endpoint: normalised bound fraction
Target: Hepatocyte nuclear factor 3-alpha (Foxa1, Mus musculus, UniProt P35582, residues 1-468, full length assumed)
Setting: whole designed probe, mean of two concentrations, ends assumed
Shared flanks, not repeated: GTGAGCGGTGCCCATTGATGGGGAAC … TTTCACTGGGATCGTGGGGAC
Construct (chain): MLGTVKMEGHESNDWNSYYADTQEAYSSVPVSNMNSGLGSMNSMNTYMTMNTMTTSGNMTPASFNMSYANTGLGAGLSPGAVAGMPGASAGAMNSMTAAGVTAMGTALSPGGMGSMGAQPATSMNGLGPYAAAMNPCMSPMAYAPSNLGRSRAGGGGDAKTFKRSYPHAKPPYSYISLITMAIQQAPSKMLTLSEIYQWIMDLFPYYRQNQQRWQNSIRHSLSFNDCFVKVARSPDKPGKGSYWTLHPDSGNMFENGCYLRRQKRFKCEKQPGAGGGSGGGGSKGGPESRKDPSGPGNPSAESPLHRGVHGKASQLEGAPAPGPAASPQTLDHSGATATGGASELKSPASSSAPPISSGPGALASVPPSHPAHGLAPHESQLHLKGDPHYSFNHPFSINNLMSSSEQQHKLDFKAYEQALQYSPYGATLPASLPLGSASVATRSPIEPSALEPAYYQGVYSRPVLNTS
TTCAGTATCCCCATATTACTTCTGAAATTTTAAGAGATAAAACATAATTTGAATATCCAGCCATTGAAAGCACAGCTCTAAAGCTATCTCCTTGTTTACTTTTGATTTATCTCCCTGGAAAAATTCCTGTTTTTTCTGTCTGTCTCAGTGTTGCATTTTGGCTATACTTAATGTACAGCATTTTGCACGTTAG: 0.414 ratio
CATTAGAGTCAAAGTTGTTAAGGGGAGCTAGTCATAGCTACCACGTGGCCAGGCATGTGGAACCAGACACCAGGCACAATGAATCATCATAAAGTAAATAGATGAATAATGCTGACAACCTAGTTCATAGTGACACACTACTTGAGATATATAGAATAACATTATTACCCAGTAAGTATGTGAACATTCCGAT: 0.471 ratio
GTAATTCATATAACAATTAAGTACGCACTTTTGAAAAATGACATCTAATTAATAGAAACTCTTCCAAAGCAACAAGTGGGTAGCAAAACTAAGTAAACAAGAGTGCTTAAAAATGGAACTCCTGGAATGCTTTTAAACCATGTTACTTGCTTATCATTCACTGATTATTCCTGGTTTCTCTTTTCTTTCTCTA: 0.407 ratio
TAGAATTTGAATTTAACATCATACTTTTGTTTTCCTTGATGAAAATCTAGACCTATCCAACTTAAGTCTCAGGAATTAAAACCTTTACTGTATGTTTACTCTGTCTTGCAAATCATTGTTGCACTTTTTAAAACTTTGAAATAATTTATTTTTATTCATCAGGTGCAGATGAGGTGATGTAATTGCAGAATTT: 0.27 ratio
TCTAGAGACATTTCTTGGACAAAAGAAAAAAAACAAAGCTGAATTGTGAGAAGATGTCAGCAAAAAAGCACATCATTATTTAAATCAGGGCTAAGTAAATAAGGAGCTGGATGTGTCTGTGTTTGCTTACAACACGTAGGATCAATTCATATATTTTAAGAAGTGCACGTATGGATTGAGCTGATTTGATTAA: 0.479 ratio
GTCCTTAATGTGTTTGTTTTTAGGACTCAAAAACGAGTCTTGAATCTTTAGAAAAGTAGAAAAATTCTCTCCTACATGCCAACAATTTTGCATGTTTACACTGTCCAATTTACATTTTTTCAAGGTATTAGTGCAAAAAGATAGTGAGAAGTGGGTAATTTGTTTATTTCTAAACAAAAAATCCTCACAGATT: 0.505 ratio
GGCATTCCTCCAGTGTACTTCATGGCTTGAATTCAAAATCATGTTCCAAGGTAAATAAATCTGCTCCATCTTGTTTATCCAAAGGGCAGTTTGGTGTTGACTTAGTTCTGCTCTTTTTTGGTAACTTATTCAAGAAAAGCAAAGAGCAGAAAATTCGTGGTGTTTTAATCCAGGGAGAAGGAGCGGGTGGAAG: 0.351 ratio
TTTCCAGCCCTTAGTTTCTGGCATTTAACCTGACTCTGGTCCCTGAATGGCATGGGAGTGCTTTCAACCACAGGTTTCCACATTCATGCAAAAGCAAACAAGTGTGATCTACAGAGATCTTTATCTGACTCATTCTTGCTTTGTGTTTCCAATGGAGAAAGAGCTTGGGAAGGGAGGATCCTAATTGTCTAAA: 0.283 ratio

Study 4 — cell line: yeast with cyclin D1-Cln2 chimera; effect on: cell growth; mode: binder; method: competitive growth deep sequencing; form: peptide; concentration: concentration not given; setting: peptide tiling library; reading: direction not given; endpoint: growth enrichment score
KPHVSDEEEEEPPFYH: 1.01
VEEEFFALRKRTPSAG: 1.16
EAAPPTQEAQGETEPT: 0.163
DKYDEGLYRFNSLNDL: 1.48
GLPDFVFQQQPVESEA: 1.01
DVSERGYVILPNDYFE: 1.06
RDLFDCDFGDLTPLDF: 1.03
QYQVVDDIVSKLVFDF: 0.318
ARKRLELGNLGNPQ: -0.64
KPKPVKPVTFSTGIKM: 1.05
ESSTVSEEDYFSSHRD: 1.13

Study 5 — method: protein binding microarray; form: double-stranded DNA, one strand shown; matrix: in vitro; concentration: not given; reference: not given; reading: higher = stronger binding; endpoint: E-score
Target: Histone acetyltransferase KAT6A, winged helix 2, GST fusion (KAT6A, Homo sapiens, UniProt Q92794, residues 85-181)
Setting: 8-mer, flanks averaged, mean of 2 arrays, mostly near background
Target sequence (chain): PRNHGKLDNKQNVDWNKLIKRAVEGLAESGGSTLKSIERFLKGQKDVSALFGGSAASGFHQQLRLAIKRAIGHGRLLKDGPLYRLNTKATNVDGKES
AGTTACAG: -0.155
AGCTCTTA: -0.0571
AGAAAATG: 0.158
GCGTCCCA: 0.0823
AAGTTTGG: 0.16
AAATTCAG: 0.138
CTTTACTC: -0.147
CACGCCAG: 0.0674
GAATTCAA: 0.0498
ACTATGGC: -0.0291
CCGAGATC: 0.173
TACGTTGA: -0.111
CATGAGCC: 0.0138
AGATTAAC: 0.0981
ACAAGTAG: -0.234
CCGGAAAA: 0.166
CACCTACA: -0.178
CCCCTGCA: -0.171
ATATCCCG: 0.105
CACCAGGA: 0.0225
CAGGCTCG: 0.082
AAATGACC: -0.137
AAGTCGCT: -0.13
GCAAGTGC: 0.0384
CATGCAAG: -0.0352

Study 6 — method: RNA Bind-n-Seq; form: RNA; matrix: in vitro; concentration: 365 nM; reference: no-protein control; reading: higher = stronger binding; endpoint: RBNS enrichment (R)
Target: RNA binding protein fox-1 homolog 2, RRM domain, GST-SBP tag (RBFOX2, Homo sapiens, UniProt O43251-10, residues 100-194)
Setting: natural RNA segment, single round, ends assumed
Shared flanks, not repeated: GGGAGUUCUACAGUCCGACGAUC … UGGAAUUCUCGGGUGCCAA
AAAGAAAAAGCUGAAGAAAUCAAGAACCAAUUGAAAUUCCUUUGGACACUUUUUUUUUUUUGUCUGUCGUUAAUUUUUAAAGACAUGUAAAGGAAGGUAACGAUUGCUGG: 0.625
UGAUUUGUACUUUCCUACAAUUUAGCACUUUAACUGACAAUGAUGGGGUUUAAACAUUUGACAGCCAACUCUAUUUUUAUACGACUACUAUACAAAGAAACUACAUAUAG: 0.431
AACCCAUUGCCCCGUUGACCUGACCUGGAAGAAGACUGUCAGCAAAAGGAAAAUACCAGAAUAUCUGGAAAGCUUGAAGUGUAAGAUGGGAUCUCGUUGGGGAAUUGGAU: 0.995
GCAUGCCACAAGUUAAAGGUCACCUUCCUGAAAGAUGAAUGAGAAAGCUGCCCAUUCUCAAGACUCAUCUGCCUAGGGAGGGUCACAGAGGCAGGAUGUAAGACACACUG: 1
UUUCCAAAGUAAGUUAUUGAAGCUGUGAUUGACAUUUUUCUCAUAAUGAAUCCUCUCAGGACAUUGUGUAGCCUAUGGUAAGUACAAAGGGAGAGGAAGACAUUUUGAAU: 0.417
AAAGCACAGCAGCAGUCGCUUCUGGGGAGUGCCAGUUAAAGUCAUGCAUCAGACCCUGCCAGACGUGGGCCUGCUUCUUGGCUCACCCACGUUUUGCCUUUCUCCUGCCC: 0.839
UGUGAGUAUGGGACAGCCGAGUUAUACCCAAGCCCAGAUGCCCCCCCAUCCUGCUCAGCUGCGUCAUGGGCCCCCCAUGCAUACGUACAUUCCUGGACACCCUCACCACC: 0.808
UUUUCUAAACUAUCAAAAACUCUAGCAGUUUGAAAAGCCUAAUAUUUAUUUGUAUGUCAGUAUUUUUCAUUUGAUUCCCUAUUAGAAUUAAUUUUAAAACUUGAAGACUU: 0.655
AUGUAUUUAUAUUCUAGCAUAGACUAAACUGAAUAAAAAUGCUGAUAACAGGACCUUUAGUAAGCAUACUUUAAUCAGUUUUUCUCCUUGAAUUAAUCUUUUCUCUUAAU: 0.647
AAUCCUGUAUUUAAAGGAAACCUUAAUUAUCAAUGGAUUUAUGAAGGAAAGUUAAAAACAAAUAUGCACAGUACAAAAUAGAUCUGUGGCUUUUUUUUUUUAAAGUAAGA: 0.414
CUAAAGCCGAUGUUUUGCCCUCUUUGGAAAGACUGAGAACUGUGGCCUGAUUUCGUCCAUAUUCUAGACUCUUAAGCUUGUCAAAUUCCAGAAAUGGAAAAAACUCUGCA: 10.8
AAUCAUGCAAUUAAAGUUGAUUACUUAUAAAUAUGAACUUUGGAUCACUGUAUAGACUGUUAAAUUUGAUUUCUUAUUACCUAUUGUUAAAUAAACUGUGUGAGACAGAC: 0.867

Repeated from above (study 4):
KPHVSDEEEEEPPFYH: 1.01
KPKPVKPVTFSTGIKM: 1.05
GLPDFVFQQQPVESEA: 1.01
VEEEFFALRKRTPSAG: 1.16
QYQVVDDIVSKLVFDF: 0.318
RDLFDCDFGDLTPLDF: 1.03
DVSERGYVILPNDYFE: 1.06
EAAPPTQEAQGETEPT: 0.163
ARKRLELGNLGNPQ: -0.64
DKYDEGLYRFNSLNDL: 1.48
ESSTVSEEDYFSSHRD: 1.13
